Measurements from different studies.
Protocols differ between the studies behind these lines. In brackets after ≈: the same amount, converted by molar mass. Bridge positions count the residues as written; N and C are the ends. Ends that are not written are not given here. * marks the point of attachment.
Organism: Staphylococcus aureus

Molecule	test	test system	setting	how to read	endpoint	result
CC[C@H](C)[C@H](NC(=O)[C@@H](NC(=O)CN)C(C)C)C(=O)N[C@@H](Cc1ccccc1)C(=O)N[C@@H](CC(N)=O)C(=O)N[C@@H](C)C(=O)N[C@@H](CC(C)C)C(=O)N[C@@H](CCCCN)C(=O)NCC(=O)N[C@H](C(=O)N[C@@H](C)C(=O)N[C@@H](CCCCN)C(=O)N[C@H](C(=O)N[C@H](C(=O)N[C@@H](C)C(=O)N[C@@H](C)C(=O)N[C@@H](CCC(N)=O)C(=O)N[C@@H](CC(C)C)C(=O)N[C@@H](CC(C)C)C(=O)N[C@@H](CCCCN)C(=O)N[C@@H](CCCCN)C(=O)N[C@@H](C)C(=O)N[C@@H](CCCNC(=N)N)C(N)=O)C(C)C)[C@@H](C)O)C(C)C	persister cells in biofilm	MRSA ATCC BAA-1707	together with: vancomycin 4 µg/mL		MBEC	256 µM
CC(C)C[C@H](NC(=O)[C@H](CCCCN)NC(=O)[C@H](CCCNC(=N)N)NC(=O)[C@@H](NC(=O)[C@H](CCCCN)NC(=O)[C@H](CCCCN)NC(=O)[C@@H](NC(=O)[C@H](Cc1ccccc1)NC(=O)[C@H](CCCNC(=N)N)NC(=O)[C@@H](N)CCCNC(=N)N)C(C)C)C(C)C)C(=O)N[C@H](C(=O)N[C@@H](CCCCN)C(=O)O)C(C)C	bacterial killing, colony count	ATCC 12600	1 h, pH 7, 37 °C		EC50	6.6 µg/mL (≈ 4.24 µM)
CCCCCCCCOc1c(OC)cc(NC(C)CCCN)c2nc(C(C)(C)C)cc(C)c12 (stereo not drawn)	bacterial growth	MRSA ATCC 33591			IC50	> 20 µg/mL
CC[C@H]1OC(=O)[C@H](C)[C@@H](O[C@H]2C[C@@](C)(OC)[C@@H](O)[C@H](C)O2)[C@H](C)[C@@H](O[C@@H]2O[C@H](C)C[C@H](N(C)C)[C@H]2O)[C@](C)(OC)C[C@@H](C)C(=O)[C@H](C)[C@@H](O)[C@]1(C)O	checkerboard titration	ATCC 38591 oxacillin-resistant	together with: ranalexin		FIC index	0.25
CCCCCCOc1c(OC)cc(NC(C)CCCNC(=O)C(N)CCCCN)c2nc(C(C)(C)C)ccc12 (stereo not drawn)	bacterial growth	MRSA ATCC 33591			IC50	> 20 µg/mL
Myristoyl-SCLPKEEQIGKSTRGRKCRRKK (disulfide 2-18 (inferred)) (N-myristoyl, disulfide; Myristoyl = CCCCCCCCCCCCCC(=O)*)		ATCC 8530	MBC, 2 h, pH 7.4, 37 °C, together with: LPS Escherichia coli 026:B6, peptide:LPS 1:1 w/w		antibacterial activity	no inhibition
vancomycin		10, female SHK mice, sepsis	intravenous, 30 min after infection, 10 days observation		dose for 100% survival	6.5 mg/kg
CN[C@H](CC(C)C)C(=O)N[C@H]1C(=O)N[C@@H](CC(N)=O)C(=O)N[C@H]2C(=O)N[C@H]3C(=O)N[C@H](C(=O)N[C@H](C(=O)O)c4cc(O)cc(O)c4-c4cc3ccc4O)[C@H](O)c3ccc(c(Cl)c3)Oc3cc2cc(c3O[C@@H]2O[C@H](CO)[C@@H](O)[C@H](O)[C@H]2O[C@H]2C[C@](C)(N)[C@H](O)[C@H](C)O2)Oc2ccc(cc2Cl)[C@H]1O	99.9% killing of intracellular bacteria	RAW264.7, MRSA USA100	24 h		intracellular bactericidal concentration	> 706 µM
CC[C@H](C)[C@H](NC(=O)[C@H](CCCCN)NC(=O)[C@H](CCC(=O)O)NC(=O)[C@H](CCCCN)NC(=O)[C@H](CO)NC(=O)[C@H](CCCCN)NC(=O)[C@H](CCCNC(=N)N)NC(=O)[C@H](Cc1ccccc1)NC(=O)[C@H](Cc1ccccc1)NC(=O)[C@H](CC(=O)O)NC(=O)CNC(=O)[C@H](CC(C)C)NC(=O)[C@@H](N)CC(C)C)C(=O)NCC(=O)N[C@@H](CCCCN)C(=O)N[C@@H](CCC(=O)O)C(=O)N[C@@H](Cc1ccccc1)C(=O)N[C@@H](CCCCN)C(=O)N[C@@H](CCCNC(=N)N)C(=O)N[C@H](C(=O)N[C@H](C(=O)N[C@@H](CCC(N)=O)C(=O)N[C@@H](CCCNC(=N)N)C(=O)N[C@H](C(=O)N[C@@H](CCCCN)C(=O)N[C@@H](CC(=O)O)C(=O)N[C@@H](Cc1ccccc1)C(=O)N[C@@H](CC(C)C)C(=O)N[C@@H](CCCNC(=N)N)C(=O)N[C@@H](CC(N)=O)C(=O)N[C@@H](CC(C)C)C(=O)N[C@H](C(=O)N1CCC[C@H]1C(=O)N[C@@H](CCCNC(=N)N)C(=O)N[C@H](C(=O)N[C@@H](CCC(=O)O)C(=O)N[C@@H](CO)C(=O)O)[C@@H](C)O)C(C)C)[C@@H](C)CC)C(C)C)[C@@H](C)CC		JE2 SAUSA300_0829 lipA transposon mutant	12.5% TSB	baseline: wild type over mutant	MIC ratio	2 fold

Excerpt of the above:
Molecule	test	test system	setting	how to read	endpoint	result
Myristoyl-SCLPKEEQIGKSTRGRKCRRKK (disulfide 2-18 (inferred)) (N-myristoyl, disulfide; Myristoyl = CCCCCCCCCCCCCC(=O)*)		ATCC 8530	MBC, 2 h, pH 7.4, 37 °C, together with: LPS Escherichia coli 026:B6, peptide:LPS 1:1 w/w		antibacterial activity	no inhibition
